Assay results of several laboratories.
Each numbered part is a random draw from the data of one study; scales do not carry over between parts. Substitutions count along the parent as printed.

Set 1 — target: CCNB3, cyclin fold, Cln2 fusion (human); technique: yeast growth competition, sequencing; medium: yeast; setting: weak parent motif; reference: not given; direction: higher = stronger binding
Starting sequence: ORC1 docking peptide (human); PRARKRLELGNLG; partner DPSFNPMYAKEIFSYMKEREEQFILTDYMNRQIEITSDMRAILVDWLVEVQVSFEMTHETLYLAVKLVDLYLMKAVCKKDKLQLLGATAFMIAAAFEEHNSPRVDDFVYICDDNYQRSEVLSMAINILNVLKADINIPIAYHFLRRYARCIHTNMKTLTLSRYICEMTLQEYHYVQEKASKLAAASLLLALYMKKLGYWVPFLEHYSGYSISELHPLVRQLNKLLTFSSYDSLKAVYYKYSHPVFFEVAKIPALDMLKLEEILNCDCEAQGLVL
Substitution	normalised enrichment score
N11A	-0.0425
L7M	0.0133
A3M	1.22
R4Q	0.965
G10A	0.24
L7P	-0.451
K5D	-0.0721
P1D	0.551
L12F	0.156
R2H	0.173
R4C	0.00661
P1M	-0.203
L7Y	0.0806
L12H	0.418
L7C	-0.0342

Set 2 — technique: DHFR PCA, deep sequencing; medium: yeast; added: (+)-ABA 0.032 µM; reference: wild-type fitted maximum; direction: higher = stronger binding
Target: ABI1, truncated, D143A, DHFR fusion (Arabidopsis thaliana)
Setting: methotrexate growth selection, single substitutions
Starting sequence: PYL1, truncated, DHFR fusion (Arabidopsis thaliana); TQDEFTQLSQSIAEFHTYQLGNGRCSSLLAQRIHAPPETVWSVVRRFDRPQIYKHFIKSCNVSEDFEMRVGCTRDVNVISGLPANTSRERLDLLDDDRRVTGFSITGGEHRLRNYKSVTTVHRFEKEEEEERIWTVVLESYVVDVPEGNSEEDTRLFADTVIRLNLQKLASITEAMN
Substitution	relative binding score [%]
T135N	-5.07
D97A	28.5
E4S	9.7
Q7P	4.5
E125N	24.6
T1N	30.2
E131K	55.8
V40G	-3.3
N85R	54.5
Q31D	2.77
G81C	12.5
H34Y	23.2
E129I	11.7
P83F	2.86
F66L	1.78
P36I	2.51
Q2T	27
I162L	3.58

Set 3 — technique: RNA Bind-n-Seq; molecule type: RNA; medium: in vitro; concentration: not given; setting: RNA with constant flanks, ends assumed; reference: input RNA pool; direction: higher = stronger binding
Target: RING finger protein unkempt homolog, zinc fingers 1-6, GST-SBP tag (UNK, Homo sapiens, UniProt Q9C0B0, residues 30-357)
UniProt Q9C0B0, sequence (30-357, looked up): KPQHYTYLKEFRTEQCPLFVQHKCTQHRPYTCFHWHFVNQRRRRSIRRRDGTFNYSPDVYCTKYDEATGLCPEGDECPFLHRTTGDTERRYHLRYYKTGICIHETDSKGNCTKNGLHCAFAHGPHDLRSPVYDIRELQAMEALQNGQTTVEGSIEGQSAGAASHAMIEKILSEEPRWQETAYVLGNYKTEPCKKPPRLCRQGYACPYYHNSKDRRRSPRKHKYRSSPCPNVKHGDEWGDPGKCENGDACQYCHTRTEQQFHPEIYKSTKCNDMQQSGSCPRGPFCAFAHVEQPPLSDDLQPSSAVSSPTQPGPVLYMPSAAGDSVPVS
Shared flanks, not repeated: GGGAGUUCUACAGUCCGACGAUC … CAACAGAGGAUUGAGCAUCA
Strand	bound/input enrichment [ratio]
GAAAAACUGUUUGCUGAAGACACAGAGGCAAAGAAUCCAUUUUCAACUCAGGACACUGAUUCCGAUUUGGAGAUGCUGGCUCCCUAUAUCCCAAUGGAUGAUGAUUUCCAGUUACGUUCC	0.145
AAAAUAAAUAAUCUCAUCCCCAAACUGUAGUAAUUGUUACAAUUUUCUAUUUAAAAAAUGAACCGUACAUGCAGAAAUUGACCUGAUUUCCAUUUGCAACAGGAAGACACUGGCUUUACA	0.77
UUGUCCUAUGAUGCUAUUAUCAUAGACUAAUGACAUUUAUCUUCAAAACACCAAAUUGUCUUCCGAAAAAUUAAUGUGAUUACAGGUAGAGGCCUUCUAGGUGAGACACUUUUAAGGUAC	0.241
CUUAUCUUGGUAGCCAAUGCAAUCGUGGGUGUGUGGCAGGAAAGAAAUGCUGAAAAUGCAACCGAAGCUCUUAAGGAAUAUGAGCCUGAAAUGGGCAAAGUGUAUCGACAGGACAGAAAG	0.351
CUCGGACCCCAGCGUCGGAAGCUGCUUUCGGGGCAUGAGCUGAGGGCACAGCUCUGAGGCCCGCAGUAUUUCUCAGAGAUUGAUGGAAACAGAAACCAAAACUCUUCCCCUGGAGAAUGC	0.154
CUUUGAUGUCUUGCAUAUAUUGCUGGUGGUAUUUAUGUGAAUUUUGUACAGUGAUUUAAUCUUGCCGUUUAUCAUUUGUACAAUUGCACUAUCUAAAUGUACUCCCUUCUGAAUGUUAAU	0.361

Set 4 — technique: protein-binding microarray; molecule type: double-stranded DNA, one strand shown; medium: in vitro; concentration: 250 nM; setting: 60-bp whole probe; added: salmon DNA 0.4 mg/ml; reference: random background probes; direction: higher = stronger binding; shared flanks, not repeated: GCCTAGCAC … GTCTTGATTCGCTTGACGCTGCTG
Target: Interferon regulatory factor 7, full length, phosphomimetic (IRF7, Homo sapiens, UniProt Q92985, residues 1-503, S101K/S471D/S472D/S475D/S476D/S477D/S483D/S484D/S487D)
Target sequence (chain): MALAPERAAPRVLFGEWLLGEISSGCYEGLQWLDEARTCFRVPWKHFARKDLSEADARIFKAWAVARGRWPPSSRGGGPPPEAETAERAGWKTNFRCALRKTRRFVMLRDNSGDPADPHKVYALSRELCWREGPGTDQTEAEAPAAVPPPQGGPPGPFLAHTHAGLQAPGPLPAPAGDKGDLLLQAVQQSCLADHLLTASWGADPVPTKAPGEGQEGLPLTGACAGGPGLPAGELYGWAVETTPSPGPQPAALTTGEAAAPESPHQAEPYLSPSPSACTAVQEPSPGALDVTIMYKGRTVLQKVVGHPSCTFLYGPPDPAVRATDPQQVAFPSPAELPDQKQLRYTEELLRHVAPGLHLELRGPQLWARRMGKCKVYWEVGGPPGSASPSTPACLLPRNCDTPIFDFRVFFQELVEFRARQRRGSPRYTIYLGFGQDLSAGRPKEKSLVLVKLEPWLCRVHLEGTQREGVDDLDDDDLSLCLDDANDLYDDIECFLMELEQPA
Strand	log fluorescence [z-score]
GACGGTATCGACTGTCGGGACGTGCTA	-0.48
TTAGGTATCGACTTTCGGCTAGTGCTA	1.41
GAAGGTATCGGGACTGGGGACGTGCTA	-0.281
TTAGGTTTAGGGTTTCGGTTAGTGCTA	5.55
GACGATTTCGGGGCTGGAGACGTGCTA	-0.193
TTTCCCATGAGTCTCAAAATGTGCTAG	3.44
GACGGTTTCGGGCTCGGGACGTGCTAG	3.14
AAGACTTTGCTCTGTGCATAGGTGCTA	-0.488
TTGGGTTCCCTTTTCCTTTAGTGCTAG	3.17
TCACCATTATATTTTAAACTGTGCTAG	0.298
TTAGGACTGCTCTTCCTTTAGTGCTAG	-0.0319
TCTCGCTTCATCTCCCAGACTGTGCTA	3.59
GACGAAGTGGGGTATCGAGACGTGCTA	-0.721
GACGATTTCAGTTTCGAGAGGTGCTAG	3.19
TTAGATCTCAGTCTTGATTAGTGCTAG	-0.047
GGGTCTGTGCCTTTTTTTTTGTGCTAG	-0.373
GACGGACTGGACTATCGGGAGGTGCTA	-0.6
GACGGTATCGGGTATCGTGACGTGCTA	0.175
TTAGATAACGGGTTTCGATTAGTGCTA	7.29

Some of these lines once more (set 1):
Substitution	normalised enrichment score
R4C	0.00661
L12H	0.418
N11A	-0.0425
